Earlier results as cited in several papers.
Sequence of UniProt Q86Y07 (whole entry, looked up): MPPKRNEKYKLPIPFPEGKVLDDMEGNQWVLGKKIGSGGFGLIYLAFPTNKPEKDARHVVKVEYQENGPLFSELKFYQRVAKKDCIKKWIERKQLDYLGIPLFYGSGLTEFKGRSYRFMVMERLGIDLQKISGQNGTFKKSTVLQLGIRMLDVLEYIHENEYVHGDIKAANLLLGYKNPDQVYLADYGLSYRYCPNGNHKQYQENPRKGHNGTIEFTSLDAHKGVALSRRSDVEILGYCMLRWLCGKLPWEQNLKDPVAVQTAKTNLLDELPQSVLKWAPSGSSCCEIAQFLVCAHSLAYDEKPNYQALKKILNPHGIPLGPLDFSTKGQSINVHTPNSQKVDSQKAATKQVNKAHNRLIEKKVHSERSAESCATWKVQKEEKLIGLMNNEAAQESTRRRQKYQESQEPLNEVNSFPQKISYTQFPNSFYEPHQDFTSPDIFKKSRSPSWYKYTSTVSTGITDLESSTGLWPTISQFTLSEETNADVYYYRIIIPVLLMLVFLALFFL

`O=C1Nc2ccc(Cl)cc2[C@@](C#CC2CC2)(C(F)(F)F)O1` has an IC50 of 16 µM (CYP2C19; competitive inhibitor; human liver microsomes).
The EC50 of `CO[C@H]1/C=C/O[C@@]2(C)Oc3c(C)c(O)c4c(O)c(c(/C=N/N5CCN(C)CC5)c(O)c4c3C2=O)NC(=O)/C(C)=C\C=C\[C@H](C)[C@H](O)[C@@H](C)[C@@H](O)[C@@H](C)[C@H](OC(C)=O)[C@@H]1C` is reported as 450 nM (CYP2C19; inducer).
`CC(=O)Nc1ccc(O)cc1` gave a Vmax of 1.14 pmol/min/pmol (CYP2C19; substrate).
`FC(F)(F)C(F)(F)C(F)(F)C(F)(F)C(F)(F)C(F)(F)C(F)(F)C(F)(F)C(F)(F)C(F)(F)F`: activity “inactive” (CYP2C19; concentration not given).
`COc1ccc2nc([S@+]([O-])Cc3ncc(C)c(OC)c3C)[nH]c2c1`: “unbound fraction in microsomes” 1 (CYP2C19; mechanism-based inhibitor).
For `CO[C@H]1/C=C/O[C@@]2(C)Oc3c(C)c(O)c4c(O)c(c(/C=N/N5CCN(C)CC5)c(O)c4c3C2=O)NC(=O)/C(C)=C\C=C\[C@H](C)[C@H](O)[C@@H](C)[C@@H](O)[C@@H](C)[C@H](OC(C)=O)[C@@H]1C`, the EC50 was 450 nM (CYP2C19; induction, inducer).
`FC(F)OC(Cl)C(F)(F)F` (stereo not shown) gave an IC50 of 79.7 µM (CYP2C19; inhibitor; Tox21 screening).
With `OC(Cn1cncn1)(Cn1cncn1)c1ccc(F)cc1F` the Ki was 2000 nM (CYP2C19; inhibitor).
`N#CCNC(=O)c1ccc(-c2ccnc(Nc3ccc(N4CCOCC4)cc3)n2)cc1` — result for “contribution to metabolism”: 19% (CYP2C19; human hepatocytes).
`Nc1cc(C(F)(F)F)c(-c2nc(N3CCOCC3)nc(N3CCOCC3)n2)cn1` gave a remaining activity of 100% (Serine/threonine-protein kinase VRK2 (VRK2, Homo sapiens, UniProt Q86Y07); enzyme activity; 10 µM; relative to: untreated).
Under IC50, `O=S(=O)(O)C(F)(F)F` is recorded as “inactive” (CYP2C19; inhibitor; Tox21 screening).
`COc1ccc2[nH]c([S@@+]([O-])Cc3ncc(C)c(OC)c3C)nc2c1` — result for “fraction of intrinsic clearance”: ~70% (CYP2C19; 5-hydroxylation; in vitro).
For `COC(=O)N[C@H](C(=O)N1CCC[C@H]1c1nc(-c2ccc3c(c2)O[C@@H](c2ccccc2)n2c-3cc3cc(-c4c[nH]c([C@@H]5CCCN5C(=O)[C@@H](NC(=O)OC)C(C)C)n4)ccc32)c[nH]1)C(C)C`, the IC50 was > 100 µM (CYP2C19; inhibitor; human liver microsomes).

Repeated from above:
Under IC50, `O=S(=O)(O)C(F)(F)F` is recorded as “inactive” (CYP2C19; inhibitor; Tox21 screening).
